Measurements from different studies.
Each numbered part is a random draw from the data of one study; scales do not carry over between parts.

Study 1
Target: RING finger protein unkempt homolog, zinc fingers 1-6, SBP tag (UNK, Homo sapiens, UniProt Q9C0B0, residues 30-357)
Chain of UniProt Q9C0B0 (30-357, looked up): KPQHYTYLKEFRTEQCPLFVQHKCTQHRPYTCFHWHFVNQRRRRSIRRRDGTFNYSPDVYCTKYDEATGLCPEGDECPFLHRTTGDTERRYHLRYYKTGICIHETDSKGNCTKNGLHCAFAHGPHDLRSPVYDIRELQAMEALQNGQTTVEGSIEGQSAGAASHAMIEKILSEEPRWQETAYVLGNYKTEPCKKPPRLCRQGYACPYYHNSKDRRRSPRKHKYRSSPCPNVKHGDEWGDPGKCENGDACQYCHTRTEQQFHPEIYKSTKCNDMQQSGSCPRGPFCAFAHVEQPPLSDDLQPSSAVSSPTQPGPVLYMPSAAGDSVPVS
Method: RNA Bind-n-Seq
Molecule type: RNA
Medium: in vitro
Concentration: 100 nM
Notes: RNA with constant flanks, vertebrate orthologous sites, ends assumed
Relative to: input RNA pool
Direction: higher = stronger binding
Constant ends, left off below: GGGAGUUCUACAGUCCGACGAUC … CAACAGAGGAUUGAGCAUCA
Strand | bound/input enrichment
AGGACCUCCAGUAGGCAAAUUCAGGGAGGGGCAGGCUUCAGGGAAUAUAAAUUAAUAUCAUAGUGGUCAUGAAGAAUAACUUUGAUUUAACUGAUUUGCGGGGAGUGAUGACAACUUCUG | 0.732 ratio
UGUUUUGUUUUGCCUAAGAGUUCGUAUUAAAGAUUGUCAAAGGAAGGAAGAGGGGAUACACUAGCAAUGGUCCCAGGUGCCUGGCCUCCAGCGCCCCAUUUGGGACAAUCCUGUCAGGGU | 0.442 ratio
CGCUGGAUAGAUACCAGGAGCCACCACAGGCAAACUUUUGUUAAACUAAUUGUCAUCUGCACAACAGCUGAGCGGAAUAUUGACAUGUCCAAACUGCUGUCAGAUACUUAGACAGCUGGG | 0.246 ratio
AGAAAACUUUAACCGUGAAUCUGAAGGUAGAAAUACAGGUCCAUGGUUAUCUUCCUCGCUUAGAAAUAGAUGCACACCUUUGUUCUCUAGAAGGAGAAGAGAGGGAAGAGAUGAAUCUUC | 0.754 ratio
ACUAGUGCUUAAGCUAUCAACAAUUCUAAAAUGCUAUUUAUUUGUCUUUGGUUUUGUACAUAGUAAUACCAACCUCAUAUUGUUGCUGAAAUUUUGUGGGUUUUUUUGUGUAUGUUUUUU | 0.982 ratio
AACUACACUAAUACUGAAGUUACAGUUGAAAGGAUAUCCAAGGUGACGAUAAAGUGUGUGUUGGUAGUUACUAAAAGAACUUUAGCUGUUAUUGCCUUGUAUUUCUAUCCCUUGUUUCAC | 0.323 ratio
CUCCCUCCCAGGACUGAGCAGUGGGGCCUGGGCCCACUGGCCACAUCAGCCAGGCCAUUUUAGCUCCUUUUUUUUUUUUUUUAAACCGUGACCUUGUUAUCCUGUAUAUAAGUGGAGAUU | 2.02 ratio
ACAGUCCUCUACUUAAACUGGUAUUUUCAAACAAUAGGAAGCUUUUUUUUUUUUUUACAGUUUAGUAUCUUGUUUCUACAUGGAAGACUAAACAUGCUUAUAGCUAAAUGUGGUCUUUGC | 1.19 ratio
UCUUAUUGAUCAGGUCUGUAAAUGUGUACUAAAAAAAUCAGAGUUUAUUUAUAAACAGAAUAGUUUAUUUAAAGAGAAGGUCUUUCCUCAUCAAUAUAAAAUUGUGGUAUGCAUUAAUUC | 0.193 ratio
GCAAUGAAAAAGCAGCCCUUCUCCCAGCCCCCUUUUCACUAGGAGAUACAAACAUUACCAUAGAAGAGCAAUUAAAUUCAAUAAAUUUAUCUUUUCAGGAUGAUCCAGACUCCAGUACCA | 1.48 ratio
ACGCUUUGACGUUAAGUUCACCGUGAACUCGUGACCCCAGGCACGAUGAGCGCACAAAAAAAAAACAACGUAGAAAGAUAUUCAAGAGUUCAGAUUGAAAAAAAACAAAAACACACAAAA | 0.245 ratio

Study 2
Target: Histone acetyltransferase KAT6A, both winged helices, GST fusion (KAT6A, Homo sapiens, UniProt Q92794, residues 1-181)
Method: protein binding microarray
Molecule type: double-stranded DNA, one strand shown
Medium: in vitro
Concentration: not given
Notes: 8-mer, flanks averaged, mean of 2 arrays, mostly near background
Relative to: not given
Direction: higher = stronger binding
Residues (chain): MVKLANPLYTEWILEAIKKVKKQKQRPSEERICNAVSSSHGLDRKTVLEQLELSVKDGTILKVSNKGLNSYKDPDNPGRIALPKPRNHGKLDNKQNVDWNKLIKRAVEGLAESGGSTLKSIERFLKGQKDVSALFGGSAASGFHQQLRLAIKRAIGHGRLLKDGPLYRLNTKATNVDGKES
Strand | E-score
ACCCCTGG | -0.233
CGCTCCCA | 0.118
TACTTAGA | -0.152
GTCTATCA | -0.0501
AATAAATT | -0.0718
ACACTCAT | -0.076
AGATCACA | -0.0833
CCAGAAGC | -0.11
CGGCCCGA | 0.209
GGGAGGTA | -0.0109
CAGTCTAC | -0.0244
AAATTTGG | -0.196
ACACGGGG | 0.201
ACGCACGG | 0.294
AGCCCGGC | 0.151
CGAGAGCA | -0.0303
GATACCCC | -0.0343
ACGCCGCC | 0.321
CAGGAAGA | -0.0773
GCGGGGAA | 0.166
CCAGACCC | -0.0326
CCGAACCC | -0.0342
GAACAACA | -0.0688
ACTCCCCG | 0.207
CCCCATGA | -0.273

Study 3
Target: Sal-like protein 4, full length isoform B (SALL4, Homo sapiens, UniProt Q9UJQ4-2, residues 1-616)
Method: universal PBM
Molecule type: double-stranded DNA, one strand shown
Medium: in vitro
Concentration: not given
Notes: 8-mer, flanks averaged, mean of replicates
Direction: higher = stronger binding
Construct (chain): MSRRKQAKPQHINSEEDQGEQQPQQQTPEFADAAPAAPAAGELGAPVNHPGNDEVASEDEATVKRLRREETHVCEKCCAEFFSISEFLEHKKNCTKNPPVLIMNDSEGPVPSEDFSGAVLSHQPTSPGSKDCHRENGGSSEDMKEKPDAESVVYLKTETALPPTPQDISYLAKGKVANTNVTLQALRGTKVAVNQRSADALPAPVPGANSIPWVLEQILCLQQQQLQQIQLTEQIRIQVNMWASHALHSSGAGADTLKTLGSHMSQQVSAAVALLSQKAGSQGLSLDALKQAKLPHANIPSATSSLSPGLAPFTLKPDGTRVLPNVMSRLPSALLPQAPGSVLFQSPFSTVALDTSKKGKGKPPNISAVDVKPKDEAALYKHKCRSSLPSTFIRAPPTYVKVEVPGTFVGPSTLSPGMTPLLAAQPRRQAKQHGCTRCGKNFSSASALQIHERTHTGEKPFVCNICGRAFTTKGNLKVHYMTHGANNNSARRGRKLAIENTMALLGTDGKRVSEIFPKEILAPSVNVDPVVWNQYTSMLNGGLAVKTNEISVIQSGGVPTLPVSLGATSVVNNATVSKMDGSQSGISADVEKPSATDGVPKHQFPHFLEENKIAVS
Strand | E-score
AACTTAGG | -0.0295
ACGGGTCC | -0.381
GCGCCGGA | -0.386
GGCGATTA | 0.0645
CTTGTCTC | -0.158
CCTGCTAC | -0.0329
AGGATTTG | -0.0215
AACGCTTG | -0.103
AAAAAGAC | 0.226
ACTTGAGC | -0.137
CTCCAGAG | -0.184
ACAGGCTG | -0.161
ATCCGCAT | -0.0458
GGAACAAC | -0.0889
CTGCCCAA | -0.225
ATGTGTAC | 0.254
GATTTTGA | 0.183
ACCCCGAT | -0.161
CCCATACC | -0.0557
AAGATTGA | 0.187
CATTCTGC | 0.00252
CGAAGTCA | 0.0118
AGAGATAA | 0.213
CAGGCTTA | -0.148
GATCGGTA | 0.00214

Study 4
Target: PABPC1L2, full length, GST fusion (mouse, UniProt A0ABA7IW68)
Method: RNAcompete
Molecule type: RNA
Medium: in vitro
Concentration: 20 nM
Notes: 7-mer, probes averaged, single round
Relative to: mean of 7-mers
Direction: higher = stronger binding
Target sequence (chain): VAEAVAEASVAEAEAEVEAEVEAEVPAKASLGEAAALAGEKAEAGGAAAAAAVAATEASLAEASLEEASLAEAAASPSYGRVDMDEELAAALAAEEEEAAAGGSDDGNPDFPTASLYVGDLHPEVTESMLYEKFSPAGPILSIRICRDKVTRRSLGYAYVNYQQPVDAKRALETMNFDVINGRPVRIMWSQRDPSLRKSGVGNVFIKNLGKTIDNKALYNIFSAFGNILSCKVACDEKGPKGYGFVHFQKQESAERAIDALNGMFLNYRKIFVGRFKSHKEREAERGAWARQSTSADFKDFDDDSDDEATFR
Strand | 7-mer Z-score
CGUUGAG | -0.186
GAGGCAC | 0.14
CGGCAGU | -0.00833
GGCAUUU | 0.131
CUGCAUU | -0.309
UGCCAUU | -0.338
CAAACGC | 0.16
UUCUUCU | -0.447
CGGGACG | -0.012
UCUACGG | -0.162
CCGUGUC | -0.481
UCCAAUC | -0.258
AGGGGUU | 0.213
UUGCUAG | -0.213
GAAAGCU | 0.0225
CGGUGUG | -0.0428
AUGUCGU | -0.291
UAACUCG | -0.315
UGGUAUG | -0.0591
AAAUGAA | 1.05

Study 5
Target: Protein max, full length (MAX, Homo sapiens, UniProt P61244-2, residues 1-151)
Method: protein-binding microarray
Molecule type: double-stranded DNA, one strand shown
Medium: in vitro
Concentration: not given
Notes: k-mer, scored over probes, only values ≥0.25
Direction: higher = stronger binding
Strand | E-score
CACGGGAC | 0.316
CGCAGCAC | 0.251
CATGCCGA | 0.399
GTGGGAAC | 0.251
CATGGCCG | 0.362
CAGTCACA | 0.321
CCCTACCA | 0.282
AACGTGCT | 0.437
ATGCGGTG | 0.295
ATGGCACG | 0.397
CATGGTGA | 0.328
CCCACCCG | 0.264
CACGGTGG | 0.301
ACCGCATG | 0.464
ATGCAGCC | 0.271
ACGAGGTA | 0.335
AATCATGT | 0.389
GACGCACA | 0.294
ATGTGGAG | 0.277
CGCATGAA | 0.28
ACATGATC | 0.359
CGGTGCAC | 0.281
CGTGCATA | 0.351

Study 6
Target: RNA binding protein fox-1 homolog 2, RRM domain, GST-SBP tag (RBFOX2, Homo sapiens, UniProt O43251-10, residues 100-194)
Method: RNA Bind-n-Seq
Molecule type: RNA
Medium: in vitro
Concentration: 365 nM
Notes: natural RNA segment, single round, ends assumed
Relative to: no-protein control
Direction: higher = stronger binding
Constant ends, left off below: GGGAGUUCUACAGUCCGACGAUC … UGGAAUUCUCGGGUGCCAA
Residues (chain): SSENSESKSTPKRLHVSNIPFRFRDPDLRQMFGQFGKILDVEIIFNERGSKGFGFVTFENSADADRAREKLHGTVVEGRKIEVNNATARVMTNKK
Strand | RBNS enrichment (R)
CCAGCCUGGUGCGGCUGGGAUCACACUUCAAGGAUGGACAGUGGUGUCUCUUUGGGAGAUGGUGUUCAAGUGGGAUACCUAAGUCUUCCCGUGGCUAGAUCCAGAGCAGA | 0.451
CCCCUUGGUCUCUUUAUGCUGCUGAGUCCCCCUUUCCUGCCCUCCCUGGCUACUGGGUCAAUAAUCUUUCAGGCCAUGAAUCUGGGAGGAGAGUGGUCUGUAAGCUCCAU | 0.504
UCUUCUACCCUCCCCCUCUUCUUUCCCAUUUUAAAAAAGAAAAGAAGGAAAAAGAAAAAAGGGGCAAGGAGCCCCGCGGCGGCCUGGGCAGCGCCUGUGCAGACCUCCCU | 0.244
CUUCCAGAAGCCUCGAGCCCCUCUUGACCUCCUACACCUGCUUUGGAAAGACAUGCACUUUUUAGUUGACUAAUUCUUCCUCCCAUUCCCCUCUACUUGCGAGUUAUGGA | 0.524
AUAUCAGUUAUAGACAAAGGCCAUGGGACUAUGCUAAACCAAUAAAACCUUAUUAGCAAAUCUUUAGAUUCUGACUUAGCCAGAGCAUCUGAGUGUUCAAGUACAGUUUU | 0.621
CUGGCUCUGACACUGUUGGGUGAGGGUCCUGGUCCUGCUGUCUUCCCUUCUGGCCUCUGCACAGGGGUGGUGACAGUGGCUACAGGCUGGGCCCCUGGCGUGCCCUGACC | 0.228
CACUCUUGCCUUCCCCCAAAAUUUACACUGCUAAAGCCCUCUGUCACUUGGCGACCCUUCUGGUCUUGCUGGAGGGGUUUCCUGGGUAUAACCCAUUGGGCUGCCCAAGG | 0.242
UGUUCAACUAUUUGCAAAGGUCAACCAAAUAGACCACAUGUUCGCAAAGUAUCAUCUGAGGAAAUUAAGUACCUUCUUAGCCCUCUCAGUCAUAAAUUUGAACAAAUUUU | 0.291
CCCAAGCCCUAACAGGCCUUCACUCUCUUGAUAGUCUUUCCUUUACAGUCAAGGACUACGUUAAAGGUCUCUGGAGAGAGUAUAAAGAGAUUAUUUUUCAUCGUUUUUAA | 0.326
UUGCUGGCAGUGCUAGCCAGGAAACAGAGUGACCAAGGGACAAGAAGGGACUUGCCUAAAGCCACCCAGCAACUCAGCAGCAGAACCAAGAUGGGCCCCAGGCUCCUCCA | 0.448
CGUACACAUGGUUAAAGAGCAGUGCACACACUAUCGAGGUGAUGGCGGCCAAGACUCCAGAAUCUCUGUGGGUGGAUCAUCCUCCUUGGGAGGCAUGUGCCUUGGGAAAA | 0.901
UCUGCAGACCCUUCCCCCACUGCUCAAAGUCCUCCCGUGCUUGGUGUGUGGGACCACCGGCUCCACCCUCCCCGCCCAUCACCAUUGCAGUUUUGCUAGAAGCUGGCGCU | 0.88

For quick reference, copied from above (study 4):
Strand | 7-mer Z-score
CGGCAGU | -0.00833
GGCAUUU | 0.131
CUGCAUU | -0.309
UGCCAUU | -0.338
CAAACGC | 0.16
UUCUUCU | -0.447
CGGGACG | -0.012
UCUACGG | -0.162
CCGUGUC | -0.481
UCCAAUC | -0.258
AGGGGUU | 0.213
UUGCUAG | -0.213
GAAAGCU | 0.0225
CGGUGUG | -0.0428
AUGUCGU | -0.291
UAACUCG | -0.315
